Results of several laboratories.
Lines come from different studies, so protocols differ. Numbers after ± are the reported error.
Organism: Staphylococcus aureus

| SMILES | test | system | conditions | how to read | measurement | value |
| --- | --- | --- | --- | --- | --- | --- |
| CN[C@H](CC(C)C)C(=O)N[C@H]1C(=O)N[C@@H](CC(N)=O)C(=O)N[C@H]2C(=O)N[C@H]3C(=O)N[C@H](C(=O)N[C@H](C(=O)O)c4cc(O)cc(O)c4-c4cc3ccc4O)[C@H](O)c3ccc(c(Cl)c3)Oc3cc2cc(c3O[C@@H]2O[C@H](CO)[C@@H](O)[C@H](O)[C@H]2O[C@H]2C[C@](C)(N)[C@H](O)[C@H](C)O2)Oc2ccc(cc2Cl)[C@H]1O |  | ATCC 33591 MRSA, neutropenic mouse thigh infection, thigh tissue | ip, 12 mg/kg twice 12 h apart, 24 h post-infection |  | bacterial load | 4.8 log CFU/g |
| CCc1cc(=O)c2c(OCC(O)CNC(C)(C)C)c3ccoc3c(OC)c2o1 (stereo not shown) | microbial growth, broth dilution | ATCC25 | 19 h |  | MIC | > 256 µg/mL |
| C[C@@H](O)[C@H]1C(=O)N2C(C(=O)O)=C(S[C@@H]3CN[C@H](C(=O)N(C)C)C3)[C@H](C)[C@H]12 | checkerboard broth microdilution | ATCC 27853 | with: ranalexin |  | FIC index | 0.75 |
| CN(C)CCSc1nnc(C23CC4CC(CC(C4)C2)C3)n1C |  | IFO 3060 | 200 µg/disc, 24 h, 37 °C |  | inhibition zone diameter | 12 mm |
| O=C(O)CNC(=O)Cn1ccc2ccc(Br)cc21 |  | Newman, mouse, sepsis model | subcutaneous, 60 mg/kg, 19 days, with: gentamicin 2 mg/kg |  | survival | 50% |
| CO/N=C(\C(=O)N[C@@H]1C(=O)N2C(C(=O)O)=C(CSc3nc(=O)c(=O)[nH]n3C)CS[C@H]12)c1csc(N)n1 | checkerboard broth microdilution | clinical isolate 15-99 | with: magainin II |  | FIC index | 0.25 |
| CC1(C)S[C@@H]2[C@H](NC(=O)[C@H](N)c3ccc(O)cc3)C(=O)N2[C@H]1C(=O)O |  | hospitalized pneumonia patients, clinical isolates | Fine score 70 or more |  | susceptible isolates | 7.7% |
| Nc1ccc(C(=O)O)cc1 | radiotracer uptake, competitor |  | with: 2-[18F]F-labelled compound |  | IC50 | 1 ± 0.9 µM |
| O=C(/C=C/C=C/c1ccccc1)c1ccccc1O | microbial growth, well diffusion | MTCC96 | 1000 µg/mL, 18 h |  | inhibition zone | 7 mm |
| CCc1cc(=O)c2c(OCC(O)CNC(C)C)c3ccoc3c(OC)c2o1 (stereo not shown) | microbial growth, broth dilution | NCTC4163 | 19 h |  | MIC | > 256 µg/mL |
| CC[C@H]1OC(=O)[C@H](C)[C@@H](O[C@H]2C[C@@](C)(OC)[C@@H](O)[C@H](C)O2)[C@H](C)[C@@H](O[C@@H]2O[C@H](C)C[C@H](N(C)C)[C@H]2O)[C@](C)(OC)C[C@@H](C)C(=O)[C@H](C)[C@@H](O)[C@]1(C)O | checkerboard broth microdilution | ATCC 27853 | with: ranalexin |  | FIC index | 0.25 |
| CCc1cc(=O)c2c(OCC(O)CN3CCCCC3)c3ccoc3c(OC)c2o1 (stereo not shown) | microbial growth, broth dilution | ATCC29 | 19 h |  | MIC | > 256 µg/mL |
| CN[C@H](CC(C)C)C(=O)N[C@H]1C(=O)N[C@@H](CC(N)=O)C(=O)N[C@H]2C(=O)N[C@H]3C(=O)N[C@H](C(=O)N[C@H](C(=O)O)c4cc(O)cc(O)c4-c4cc3ccc4O)[C@H](O)c3ccc(c(Cl)c3)Oc3cc2cc(c3O[C@@H]2O[C@H](CO)[C@@H](O)[C@H](O)[C@H]2O[C@H]2C[C@](C)(N)[C@H](O)[C@H](C)O2)Oc2ccc(cc2Cl)[C@H]1O |  | MRSA 5 tetM, mouse thigh infection model | sc, 20 mg/kg, 24 h | reference: untreated control | log10 CFU change | 1.71 log10 |

A few entries again:
| SMILES | test | system | conditions | how to read | measurement | value |
| --- | --- | --- | --- | --- | --- | --- |
| CN(C)CCSc1nnc(C23CC4CC(CC(C4)C2)C3)n1C |  | IFO 3060 | 200 µg/disc, 24 h, 37 °C |  | inhibition zone diameter | 12 mm |
| Nc1ccc(C(=O)O)cc1 | radiotracer uptake, competitor |  | with: 2-[18F]F-labelled compound |  | IC50 | 1 ± 0.9 µM |
